# Experimental data pooled from the literature.
# Parts stem from different laboratories: compare values within a part only. Substitutions count along the parent as printed.

# Sample 1 — target: CCNE1, cyclin fold, Cln2 fusion (human); method: yeast growth competition, sequencing; medium: yeast; setting: strong parent motif; reference: not given; reading: higher = stronger binding
# Starting sequence: RBL2 docking peptide (human); STTRRRLFVENDS; partner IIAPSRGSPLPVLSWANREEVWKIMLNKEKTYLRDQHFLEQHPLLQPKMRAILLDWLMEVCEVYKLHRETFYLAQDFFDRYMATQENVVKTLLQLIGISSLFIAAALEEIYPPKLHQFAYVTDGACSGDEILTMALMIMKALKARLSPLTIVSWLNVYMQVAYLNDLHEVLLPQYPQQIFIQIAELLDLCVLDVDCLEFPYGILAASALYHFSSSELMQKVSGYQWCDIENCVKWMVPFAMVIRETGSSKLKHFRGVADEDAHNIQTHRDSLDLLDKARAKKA
Substitution,normalised enrichment score
R4K,5.64
S13R,5.2
R6K,5.53
S13G,5.94
R4W,0.355
S13Y,6.21
V9C,6.13
S1L,5.66
T2H,6.85
E10Y,2.35
R4F,3.04
F8I,0.205
R6M,2.61
R6N,0.587
R5V,0.392

# Sample 2 — method: aptamer microarray, sandwich; molecule type: DNA with 2'F-ANA; medium: in vitro; concentration: 200 nM; together with: Cy3 exosite-II aptamer, 400 nM; reading: higher = stronger binding; strand: GGTTGGTGTGGTTGG
# Target: Prothrombin, mature alpha-thrombin (F2, Homo sapiens, UniProt P00734)
# Setting: whole 15-mer aptamer, many near background
Modification,mean fluorescence intensity [a.u.]
2'F-ANA at 1 3 5 12 15,129
2'F-ANA at 4 5 13,53.6
2'F-ANA at 1 8 12,409
2'F-ANA at 3 4 7 8 9 12 13 14,381
2'F-ANA at 2 4 8 9 10 11,81.7
2'F-ANA at 5 7 8 10 11 13 14 15,49.7
2'F-ANA at 1 4 5 7 8 10 11 13 15,49.2
2'F-ANA at 3 4 5 6 9 13 15,57.9
2'F-ANA at 1 2 3 4 5 6 8 9 10 12 14,49.1
2'F-ANA at 1 2 3 6 8 12,503
2'F-ANA at 2 3 4 5 9 10 11 12 13 14,60.6
2'F-ANA at 1 4 6 7 12 14,55.2
2'F-ANA at 1 2 3 5 6 8 11 12 13 15,80.9
2'F-ANA at 1 3 4 5 7 9 12,179
2'F-ANA at 1 4 5 7 10 12 13 14,45.1
2'F-ANA at 3 5 12 13 14,95.8
2'F-ANA at 1 2 5 6 7 8 9 10 14,53.8
2'F-ANA at 1 3 4 5 7 8 9 10 12 14,70
2'F-ANA at 3 4 6 8 9 10 11 12 13,195
2'F-ANA at 1 5 6 10 14,46.2
2'F-ANA at 3 4 5 6 7 9 11,147
2'F-ANA at 5 6 7 8 9 11 12 14 15,51
2'F-ANA at 1 2 5 6 7 8 10,56
2'F-ANA at 3 5 6 7 10 13 15,53.6
2'F-ANA at 1 2 3 4 5 6 7 10 12 13 14 15,77.9

# Sample 3 — method: DHFR PCA, deep sequencing; medium: yeast; together with: (+)-ABA 200 µM; reference: wild-type fitted maximum; reading: higher = stronger binding
# Target: ABI1, truncated, D143A, DHFR fusion (Arabidopsis thaliana)
# Setting: methotrexate growth selection, single substitutions
# Starting sequence: PYL1, truncated, DHFR fusion (Arabidopsis thaliana); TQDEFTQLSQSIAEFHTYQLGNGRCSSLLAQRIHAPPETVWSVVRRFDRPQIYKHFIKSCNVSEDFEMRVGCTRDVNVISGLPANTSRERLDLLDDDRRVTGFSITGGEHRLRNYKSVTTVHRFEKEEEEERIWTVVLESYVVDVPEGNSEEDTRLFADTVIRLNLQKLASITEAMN; partner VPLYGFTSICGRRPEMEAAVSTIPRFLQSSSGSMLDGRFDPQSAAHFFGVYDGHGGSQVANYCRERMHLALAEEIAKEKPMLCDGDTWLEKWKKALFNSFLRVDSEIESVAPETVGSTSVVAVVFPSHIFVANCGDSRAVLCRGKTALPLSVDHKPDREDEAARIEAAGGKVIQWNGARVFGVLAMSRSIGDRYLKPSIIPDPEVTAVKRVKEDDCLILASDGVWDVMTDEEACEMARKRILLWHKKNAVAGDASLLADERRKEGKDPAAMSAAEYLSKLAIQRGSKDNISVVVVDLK
Substitution,relative binding score [%]
F47Q,4.08
T73Y,110
V76T,77.7
D96S,56.6
H55C,103
E131W,88.9
I79G,74.4
S63C,97.7
S171I,93.1
Q19P,97.1
D48Q,64.5
G108W,16
H16F,-7.98
K54Q,-18.2
E129V,108
T73Q,99.2

# Sample 4 — method: RNA Bind-n-Seq; molecule type: RNA; medium: in vitro; concentration: 1 µM; setting: whole 134-nt RNA, ends assumed; together with: 150 mM KCl; reference: input library; reading: higher = stronger binding
# Target: Ras GTPase-activating protein-binding protein 1, RRM domain (G3BP1, Homo sapiens, UniProt Q13283)
# Chain of UniProt Q13283 (whole entry, looked up): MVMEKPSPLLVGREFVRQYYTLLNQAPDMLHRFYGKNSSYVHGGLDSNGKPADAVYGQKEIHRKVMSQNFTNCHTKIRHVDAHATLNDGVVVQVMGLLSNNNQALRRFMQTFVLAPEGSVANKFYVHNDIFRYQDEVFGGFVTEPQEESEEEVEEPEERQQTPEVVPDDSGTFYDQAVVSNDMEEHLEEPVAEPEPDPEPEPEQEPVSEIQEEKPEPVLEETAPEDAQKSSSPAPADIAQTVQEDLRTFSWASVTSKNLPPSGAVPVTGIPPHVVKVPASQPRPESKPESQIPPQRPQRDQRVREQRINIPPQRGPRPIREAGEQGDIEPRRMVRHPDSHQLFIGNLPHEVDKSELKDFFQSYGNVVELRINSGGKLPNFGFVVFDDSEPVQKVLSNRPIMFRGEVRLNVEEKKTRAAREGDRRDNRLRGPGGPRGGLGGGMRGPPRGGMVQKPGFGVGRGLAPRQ
# Shared flanks, not repeated: GGGAGUUCUACAGUCCGACGAUC … UGGAAUUCUCGGGUGUCAAGG
Strand,log2 enrichment
ACCAUGCAGGUGGGCAUCUUUGGGAAGUGGGGCAAGGGGGGGAUAGGGAAGGGGGUAACACUUUGGGAACAGGUGGUCCCAGGUCGUUUC,1.06
UUCCUCAAGUCCUGUGCUACACAUCGUAUGUACCGAAUCGGAGGAGGGAGGAAAGUAUUAUGUUACGCCGUUCGGAUCUGCACUUCCAGC,-0.226
AGUCCUGUGCUACACAUCGUAUGUACCGAAUCGGUUUUUUUGGUUUUUGGAAAAAGGAAAGUAUUAUGUUACGCCGUUCGGAUCUGCACU,-0.0964
UCCUCAAGUCCUGUGCUACACAUCGUAUGUACCGAAUCGGUGGUGGGGUGGAAAGUAUUAUGUUACGCCGUUCGGAUCUGCACUUCCAGC,-0.196
CCUGUGCUACACAUCGUAUGUACCGAAUCGGGCCCCCCGGGGCCCCCCGGGCCCCCCGGGAAAGUAUUAUGUUACGCCGUUCGGAUCUGC,-0.652
GUCCUGUGCUACACAUCGUAUGUACCGAAUCGGGGUUUGGGGAAAAAAAGGGGUGGGGAAAGUAUUAUGUUACGCCGUUCGGAUCUGCAC,0.819
UCAAGUCCUGUGCUACACAUCGUAUGUACCGAAUCGGAAAGGUUUGGUUUUUGGAAAGUAUUAUGUUACGCCGUUCGGAUCUGCACUUCC,-0.218
UCCUGUGCUACACAUCGUAUGUACCGAAUCGGGAAAAAAGGAAAAAAGGGAAAAAAGGGAAAGUAUUAUGUUACGCCGUUCGGAUCUGCA,0.163
GUCCUGUGCUACACAUCGUAUGUACCGAAUCGGGGUUUUUGGGUUUUUGGGUUUUUGGAAAGUAUUAUGUUACGCCGUUCGGAUCUGCAC,-0.167
UGUCCCUGGUGGCAUGCGGGGAGGAAGAGGUGGCCUCAUGGAUCGUGGUGGUCCCGGUGGAAUGUUCAGAGGUGGCCGUGGUGGAGACAG,0.526

# Sample 5 — method: protein binding microarray; molecule type: double-stranded DNA, one strand shown; medium: in vitro; concentration: not given; reference: not given; reading: higher = stronger binding
# Target: Histone acetyltransferase KAT6A, winged helix 1, GST fusion (KAT6A, Homo sapiens, UniProt Q92794, residues 1-85)
# Setting: 8-mer, flanks averaged, mean of 2 arrays, mostly near background
# Target sequence (chain): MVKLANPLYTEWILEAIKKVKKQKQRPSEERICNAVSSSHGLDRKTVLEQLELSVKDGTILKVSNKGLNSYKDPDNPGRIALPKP
Strand,E-score
TCCTGCGA,0.00029
GTACAGCA,0.0151
CCGTGGTC,0.182
GCAGAGCA,-0.0848
CTCGTACC,-0.0211
AGCCCTTA,-0.148
GATAGGTA,-0.114
TGCATACA,-0.208
AGGCGATA,-0.0454
CCCCGTAC,0.368
AAGCATCG,-0.0325
CATAAACG,0.00281
CGGGAATC,0.22
AGTGAACT,-0.208
ATATTCAA,-0.0525
GTCGGCAC,0.236
ATCGCACG,0.195
AGGGGAGC,-0.0963
CGCGCAAG,0.352
ACTACTTA,-0.0382
AATTTTTG,-0.266
CGGGCAAC,0.278
ACGTAGTG,-0.00177
